Measured values pooled from the literature.
Protocols differ between the studies behind these lines. ± marks the error that the study gave.
OPRK1: Kappa-type opioid receptor (OPRK1, Homo sapiens, UniProt P41145)

`CC(C)(C)C(=O)OCOP(=O)(OCOC(=O)C(C)(C)C)C1CCCN(O)C1=O` (stereo not shown) gave a log TGI of -4.85 log M (M14).
For `CCCCN(C)c1c(C)nc2ccc(C(=O)N3CCC[C@@H](C(N)=O)C3)cn12`, activity read “active” (Acetylcholinesterase (ache, Electrophorus electricus, UniProt O42275); inhibitor; 5 µM).
`COc1ccccc1-c1n[nH]c2nc(NC3CCN(C(=O)Cc4ccc(F)cc4F)CC3)ncc12` has a relative abundance of 1.03 (bead binding, competition bead pull-down, measured: LINJ.30.3000; Leishmania donovani extract; 10 µM; baseline: vehicle).
`CC(C)[C@H]1NC(=O)C[C@H]2/C=C/CCSSC[C@@H](NC1=O)C(=O)N[C@H](Cc1cccc3ccccc13)C(=O)NCC(=O)O2` gave an inhibition of 11.2% (PAS domain-containing serine/threonine-protein kinase (PASK, Homo sapiens, UniProt Q96RG2); enzyme activity, inhibitor; 10 µM).
`O=C1NC2(CC2)COc2ncc(F)cc2[C@H]2COCCN2c2ccn3ncc1c3n2` has a serum triglycerides of 0.46 ± 0.18 mmol/L (Sprague-Dawley rat, female, serum; oral, 10 mg/kg/day, end of treatment, 4-week subacute toxicity).
`CCC1c2ccsc2CCN1C(=O)Cn1cc(CC2NC(=O)NC2=O)nn1` (stereo not shown) has a Hill slope of 7.06 (Genome polyprotein, 3C protease (rhinovirus B14, UniProt P03303); protease activity, SAMDI-MS).
With `[CH3][Ti+2][O]C(=O)c1ccc([S][Au][PH](c2ccccc2)(c2ccccc2)c2ccccc2)cc1.c1cc[cH-]c1.c1cc[cH-]c1` the remaining activity was 100% (Protein kinase C delta type (PRKCD, Homo sapiens, UniProt Q05655); kinase activity; 1 µM, with: ATP 10 µM).
For `CN1CCC23c4c5ccc(O)c4CC2C(O)C=CC3C1C5` (racemic), the Emax was 93 ± 7% (OPRK1; receptor activation, agonist, cell-based).
For `C#CCCCCOc1ccc2c(c1)CCCN2C(=O)CCl`, the reactivity ratio was 1.49 (Sphingolipid delta(4)-desaturase DES1 (DEGS1, Homo sapiens, UniProt O15121); mass spectrometry profiling; H460 cell lysate; 100 µM over 10 µM, UniProt O15121; baseline: high over low concentration).
For `CN(C)[C@H]1C[C@@]23CC[C@@]4(O2)C(=CC[C@]2(C)[C@@H](c5ccc6ccncc6c5)CC[C@H]24)C=C3[C@@H](O)[C@@H]1O`, the inhibition was 3.5% (Scaffold protein ILK (ILK, Homo sapiens, UniProt Q13418); probe labelling, inhibitor, KiNativ ATP probe MS; native lysate; 1 µM).
With `CS(C)(=O)=Nc1ccc(-c2ccc(-c3nc4cc(O[C@@H]5CO[C@H]6[C@@H]5OC[C@H]6O)[nH]c4cc3F)cc2)cc1` the inhibition was 14% (Protein kinase C theta type (PRKCQ, Homo sapiens, UniProt Q04759); enzyme activity, inhibitor; 10 µM).
With `CC(C)CC(C(=O)N1CC2(CC1C#N)C(=O)Nc1ccccc12)N(C)C(=O)c1cc2c(F)cc(F)c(F)c2[nH]1` (stereo not shown) the remaining activity was 0.67% (Replicase polyprotein 1ab, main protease (rep, Porcine epidemic diarrhea virus, UniProt P0C6Y4); protease activity, inhibitor; 10 µM).
For `CS(=O)(=O)N1CCN(C(=O)Cc2ccc(Cl)c(Cl)c2)[C@H]2[C@H]1COC[C@@H]2N1CCCC1` (single isomer, unassigned), the Emax was 99% (OPRK1; β-arrestin-2 recruitment, agonist; U2OS; 1.5 h; baseline: U-69593 maximal response).
For `COc1ccccc1/N=N/c1cccc([B-](F)(F)F)c1.[K+]`, the switching factor was 2.3 ± 0.1 (Chymotrypsinogen A (Bos taurus, UniProt P00766); enzyme activity, inhibitor; with: Suc-AAPF-AMC; baseline: Ki cis over Ki trans).
`O=C1NC(=O)c2c1c1cc(F)c[n+]3c1c1c2c2cc(O)ccc2[n]1[Ru-4]312([N]=C=S)[S+]3CC[S+]1CC[S+]2CC3` (stereo not shown) gave a remaining activity of 105% (Eukaryotic elongation factor 2 kinase (EEF2K, Homo sapiens, UniProt O00418); enzyme activity; 100 nM, human enzyme, with: 10 µM ATP; baseline: untreated).
`Cc1sc2c(c1C)C(c1ccc(Cl)cc1)=NC(CC(=O)OC(C)(C)C)c1nnc(C)n1-2` (stereo not shown) gave a remaining binding of 106% (5-hydroxytryptamine receptor 3A (HTR3A, Homo sapiens, UniProt P46098); ligand displacement, radioligand; 1 µM).

Repeated from above:
With `CS(C)(=O)=Nc1ccc(-c2ccc(-c3nc4cc(O[C@@H]5CO[C@H]6[C@@H]5OC[C@H]6O)[nH]c4cc3F)cc2)cc1` the inhibition was 14% (Protein kinase C theta type (PRKCQ, Homo sapiens, UniProt Q04759); enzyme activity, inhibitor; 10 µM).
